Published values of several laboratories.
Each numbered part is a random draw from the data of one study; scales do not carry over between parts. Changes are numbered by the printed parent chain.
UniProt P50613, sequence (whole entry, looked up): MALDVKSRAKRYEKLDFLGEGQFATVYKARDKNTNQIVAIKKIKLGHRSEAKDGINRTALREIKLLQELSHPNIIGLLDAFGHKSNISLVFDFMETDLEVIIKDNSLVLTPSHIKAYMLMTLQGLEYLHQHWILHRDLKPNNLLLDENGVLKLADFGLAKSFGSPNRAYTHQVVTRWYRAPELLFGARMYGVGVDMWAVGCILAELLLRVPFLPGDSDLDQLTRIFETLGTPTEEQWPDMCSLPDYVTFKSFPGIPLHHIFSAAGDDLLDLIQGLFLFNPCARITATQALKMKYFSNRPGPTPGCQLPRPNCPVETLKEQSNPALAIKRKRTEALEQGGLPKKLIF
UniProt P49759, sequence (whole entry, looked up): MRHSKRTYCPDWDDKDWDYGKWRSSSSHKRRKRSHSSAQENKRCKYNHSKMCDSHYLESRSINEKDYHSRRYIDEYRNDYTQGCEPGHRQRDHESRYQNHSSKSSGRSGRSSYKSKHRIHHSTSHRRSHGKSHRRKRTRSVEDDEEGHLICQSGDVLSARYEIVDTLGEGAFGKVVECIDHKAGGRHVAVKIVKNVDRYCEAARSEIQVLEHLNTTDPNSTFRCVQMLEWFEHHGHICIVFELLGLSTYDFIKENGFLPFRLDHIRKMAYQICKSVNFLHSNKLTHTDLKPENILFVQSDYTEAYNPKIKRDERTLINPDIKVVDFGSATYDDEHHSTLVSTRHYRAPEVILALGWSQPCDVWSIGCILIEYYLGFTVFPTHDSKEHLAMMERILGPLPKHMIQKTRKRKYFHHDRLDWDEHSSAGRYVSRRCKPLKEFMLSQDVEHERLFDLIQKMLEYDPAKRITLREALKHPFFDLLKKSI
UniProt P35590, sequence (whole entry, looked up): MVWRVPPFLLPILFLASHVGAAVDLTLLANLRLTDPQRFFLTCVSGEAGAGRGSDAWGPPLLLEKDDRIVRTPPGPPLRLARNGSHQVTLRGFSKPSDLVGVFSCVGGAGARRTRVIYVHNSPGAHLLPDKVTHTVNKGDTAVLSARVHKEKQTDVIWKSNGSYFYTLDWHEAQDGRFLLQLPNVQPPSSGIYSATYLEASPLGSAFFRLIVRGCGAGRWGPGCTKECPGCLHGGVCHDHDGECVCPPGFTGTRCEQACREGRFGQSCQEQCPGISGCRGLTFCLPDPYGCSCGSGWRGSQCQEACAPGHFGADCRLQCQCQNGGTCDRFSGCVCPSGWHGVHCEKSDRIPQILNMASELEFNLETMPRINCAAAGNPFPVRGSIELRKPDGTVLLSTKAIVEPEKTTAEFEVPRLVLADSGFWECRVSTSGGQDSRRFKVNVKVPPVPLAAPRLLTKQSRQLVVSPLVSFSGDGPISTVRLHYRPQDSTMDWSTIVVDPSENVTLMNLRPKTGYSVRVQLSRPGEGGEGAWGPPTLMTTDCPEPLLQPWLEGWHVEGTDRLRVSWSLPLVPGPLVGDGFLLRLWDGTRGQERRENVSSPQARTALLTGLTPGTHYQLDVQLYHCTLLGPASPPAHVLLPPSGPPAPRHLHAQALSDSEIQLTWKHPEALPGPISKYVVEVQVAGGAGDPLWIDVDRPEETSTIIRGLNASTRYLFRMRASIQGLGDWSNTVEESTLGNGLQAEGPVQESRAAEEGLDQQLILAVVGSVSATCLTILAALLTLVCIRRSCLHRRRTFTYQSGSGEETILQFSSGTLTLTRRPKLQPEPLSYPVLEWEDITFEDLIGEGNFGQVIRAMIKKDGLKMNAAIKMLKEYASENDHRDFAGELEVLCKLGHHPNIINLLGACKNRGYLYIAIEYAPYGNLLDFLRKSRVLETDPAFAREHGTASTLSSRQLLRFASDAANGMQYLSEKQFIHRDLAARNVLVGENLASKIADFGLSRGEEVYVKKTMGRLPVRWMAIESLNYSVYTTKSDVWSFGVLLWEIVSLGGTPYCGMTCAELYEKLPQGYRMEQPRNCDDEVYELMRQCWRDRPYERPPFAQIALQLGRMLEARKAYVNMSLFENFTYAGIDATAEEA
UniProt Q15139, sequence (whole entry, looked up): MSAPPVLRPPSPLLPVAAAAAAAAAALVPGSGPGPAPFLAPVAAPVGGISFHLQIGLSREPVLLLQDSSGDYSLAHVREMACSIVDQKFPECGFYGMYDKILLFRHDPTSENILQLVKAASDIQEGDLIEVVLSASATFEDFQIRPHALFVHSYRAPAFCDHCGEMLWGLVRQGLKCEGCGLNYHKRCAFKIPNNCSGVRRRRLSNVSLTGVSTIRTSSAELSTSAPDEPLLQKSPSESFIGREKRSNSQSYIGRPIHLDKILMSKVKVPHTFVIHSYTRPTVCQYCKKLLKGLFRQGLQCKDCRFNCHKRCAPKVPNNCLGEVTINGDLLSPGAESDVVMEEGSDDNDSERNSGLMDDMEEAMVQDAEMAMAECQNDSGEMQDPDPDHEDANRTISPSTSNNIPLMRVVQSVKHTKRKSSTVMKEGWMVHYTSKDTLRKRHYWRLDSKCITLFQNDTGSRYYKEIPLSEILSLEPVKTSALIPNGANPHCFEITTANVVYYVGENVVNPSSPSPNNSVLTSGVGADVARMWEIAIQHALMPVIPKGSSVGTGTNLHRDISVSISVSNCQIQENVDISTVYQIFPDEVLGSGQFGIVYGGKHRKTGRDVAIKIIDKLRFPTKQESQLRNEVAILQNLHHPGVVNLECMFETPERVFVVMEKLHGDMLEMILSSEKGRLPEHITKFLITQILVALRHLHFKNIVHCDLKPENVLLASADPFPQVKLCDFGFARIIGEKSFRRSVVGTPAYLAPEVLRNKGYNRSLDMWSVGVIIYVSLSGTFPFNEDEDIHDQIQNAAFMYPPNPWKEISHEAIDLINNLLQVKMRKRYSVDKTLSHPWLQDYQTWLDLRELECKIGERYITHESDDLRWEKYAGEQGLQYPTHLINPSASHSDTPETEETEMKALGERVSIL
UniProt O76039, sequence (whole entry, looked up): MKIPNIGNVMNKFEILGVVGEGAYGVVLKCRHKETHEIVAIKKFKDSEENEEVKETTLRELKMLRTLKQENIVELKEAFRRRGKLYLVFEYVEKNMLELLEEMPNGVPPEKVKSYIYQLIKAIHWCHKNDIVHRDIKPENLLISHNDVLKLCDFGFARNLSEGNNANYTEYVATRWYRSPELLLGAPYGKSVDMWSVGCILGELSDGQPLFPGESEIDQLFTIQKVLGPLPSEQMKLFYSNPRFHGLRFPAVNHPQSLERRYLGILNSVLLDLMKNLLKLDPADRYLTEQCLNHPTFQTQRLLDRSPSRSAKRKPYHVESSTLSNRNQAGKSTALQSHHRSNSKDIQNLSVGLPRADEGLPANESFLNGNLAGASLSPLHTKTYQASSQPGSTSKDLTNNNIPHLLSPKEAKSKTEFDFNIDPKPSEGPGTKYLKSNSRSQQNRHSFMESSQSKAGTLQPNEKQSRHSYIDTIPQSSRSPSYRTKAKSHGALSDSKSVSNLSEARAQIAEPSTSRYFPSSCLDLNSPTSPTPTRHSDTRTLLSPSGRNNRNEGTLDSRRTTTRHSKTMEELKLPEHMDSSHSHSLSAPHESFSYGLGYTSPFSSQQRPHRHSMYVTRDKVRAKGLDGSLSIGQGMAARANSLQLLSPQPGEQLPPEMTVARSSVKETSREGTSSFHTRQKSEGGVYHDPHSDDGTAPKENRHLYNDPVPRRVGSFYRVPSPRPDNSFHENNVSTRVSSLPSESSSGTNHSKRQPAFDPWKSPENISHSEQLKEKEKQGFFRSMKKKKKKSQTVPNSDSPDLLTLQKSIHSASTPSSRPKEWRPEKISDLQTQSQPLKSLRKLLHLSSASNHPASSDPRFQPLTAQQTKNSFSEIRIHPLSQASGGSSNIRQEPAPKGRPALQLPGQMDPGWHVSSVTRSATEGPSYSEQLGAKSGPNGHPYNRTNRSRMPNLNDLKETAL

Study 1 — observed: enzyme activity; mode: inhibitor; tested at: 0.5 µM; baseline: control; measurement: remaining activity
SMILES: COC[C@H]1OC(=O)c2coc3c2[C@@]1(C)C1=C(C3=O)[C@@H]2CCC(=O)[C@@]2(C)C[C@H]1OC(C)=O
target = PTK2B (Homo sapiens, UniProt Q14289); result = 86.3%
target = CDK7 (Homo sapiens, UniProt P50613); result = 93.3%
target = PRKD1 (Homo sapiens, UniProt Q15139); result = 97.3%

Study 2 — observed: phage display binding; method: phage display panning NGS; form: peptide; setting: panning round 3; baseline: OGT-panned over input library; measurement: fold enrichment
Target: UDP-N-acetylglucosamine--peptide N-acetylglucosaminyltransferase 110 kDa subunit (OGT, Homo sapiens, UniProt O15294)
UniProt O15294, sequence (whole entry, looked up): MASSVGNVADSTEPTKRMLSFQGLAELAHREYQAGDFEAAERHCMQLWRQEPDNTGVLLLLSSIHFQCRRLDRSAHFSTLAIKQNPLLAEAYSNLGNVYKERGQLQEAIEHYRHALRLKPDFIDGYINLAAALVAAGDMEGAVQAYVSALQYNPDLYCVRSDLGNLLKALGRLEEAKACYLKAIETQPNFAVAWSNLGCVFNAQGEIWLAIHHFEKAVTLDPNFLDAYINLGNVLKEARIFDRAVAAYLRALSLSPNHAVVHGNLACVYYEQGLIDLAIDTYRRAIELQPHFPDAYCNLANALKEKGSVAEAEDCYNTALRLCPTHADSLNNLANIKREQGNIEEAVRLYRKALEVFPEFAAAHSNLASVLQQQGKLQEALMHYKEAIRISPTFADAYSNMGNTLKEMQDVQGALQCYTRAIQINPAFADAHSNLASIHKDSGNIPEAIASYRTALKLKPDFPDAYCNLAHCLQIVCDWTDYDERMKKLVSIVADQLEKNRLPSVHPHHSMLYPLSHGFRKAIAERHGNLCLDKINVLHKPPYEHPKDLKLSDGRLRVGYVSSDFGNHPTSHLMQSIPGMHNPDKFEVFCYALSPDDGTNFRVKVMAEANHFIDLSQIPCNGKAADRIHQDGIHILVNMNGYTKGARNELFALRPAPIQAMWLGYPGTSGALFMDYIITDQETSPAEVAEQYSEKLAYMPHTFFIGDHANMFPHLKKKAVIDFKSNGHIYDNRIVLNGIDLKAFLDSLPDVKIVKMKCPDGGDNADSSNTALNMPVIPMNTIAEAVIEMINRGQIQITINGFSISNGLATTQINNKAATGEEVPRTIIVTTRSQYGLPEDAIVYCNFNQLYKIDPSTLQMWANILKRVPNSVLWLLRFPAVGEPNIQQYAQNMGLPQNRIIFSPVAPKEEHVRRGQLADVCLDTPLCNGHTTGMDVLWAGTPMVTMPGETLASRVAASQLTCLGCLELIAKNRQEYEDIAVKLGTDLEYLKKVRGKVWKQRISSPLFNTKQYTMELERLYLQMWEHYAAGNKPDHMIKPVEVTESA
Molecule = NFLPQYQITAGAYET; result = 4.17
Molecule = QATSPFAPIYQMIRD; result = 1.8
Molecule = QNLEFFPKYQLVTR; result = 2.29
Molecule = ASQYDFMPAYRIDVG; result = 2.31
Molecule = YATPWTPQYQIMYN; result = 2.61
Molecule = YFTTPMYQIYYERA; result = 2.91
Molecule = TSFAPEYIIDYIRPV; result = 3.12
Molecule = SYRPMYQIVQPIKQY; result = 1.73

Study 3 — target: CCNB2, cyclin fold, Cln2 fusion (human); method: yeast growth competition, sequencing; matrix: yeast; setting: strong parent motif; baseline: not given; reading: higher = stronger binding; measurement: normalised enrichment score
Starting sequence: viral docking peptide; YKVKRRLVFGADD; partner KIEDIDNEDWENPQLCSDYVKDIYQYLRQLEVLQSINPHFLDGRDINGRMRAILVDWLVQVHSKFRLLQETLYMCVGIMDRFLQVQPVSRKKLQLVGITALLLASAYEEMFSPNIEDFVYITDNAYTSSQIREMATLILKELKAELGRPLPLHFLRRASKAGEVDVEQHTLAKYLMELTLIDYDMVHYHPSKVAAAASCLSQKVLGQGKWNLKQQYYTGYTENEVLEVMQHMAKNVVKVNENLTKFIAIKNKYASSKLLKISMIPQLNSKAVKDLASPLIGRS
Change = YCVKRRLVFGADD [K2C]; result = 2
Change = YKVKRRLVFVADD [G10V]; result = 1.87
Change = YKVKRRLVNGADD [F9N]; result = 0.773
Change = YKVKRRLMFGADD [V8M]; result = 1.43
Change = YKKKRRLVFGADD [V3K]; result = 0.653
Change = YKEKRRLVFGADD [V3E]; result = 0.523
Change = YKVKRRLVQGADD [F9Q]; result = 0.863
Change = YKVKGRLVFGADD [R5G]; result = 0.298

Study 4 — observed: cell-free assay; method: competition with immobilised ligand; tested at: 1 µM; measurement: remaining binding
Structure (SMILES): N#CC1(c2ccccn2)CCN(Cc2cc(C(=O)O)c(=O)n3ccccc23)CC1
target = CLK1 (Homo sapiens, UniProt P49759); result = 80%
target = TIE1 (Homo sapiens, UniProt P35590); result = 100%
target = CDKL5 (Homo sapiens, UniProt O76039); result = 100%

A few entries again (study 2):
Molecule = QATSPFAPIYQMIRD; result = 1.8
Molecule = QNLEFFPKYQLVTR; result = 2.29
Molecule = ASQYDFMPAYRIDVG; result = 2.31
